Measured values of several laboratories.
Each numbered part is a random draw from the data of one study; scales do not carry over between parts. Substitutions count along the parent as printed.

Set 1 — target: CCND1, cyclin fold, Cln2 fusion (human); method: yeast growth competition, sequencing; sample: yeast; setting: weak parent motif; relative to: not given; reading: higher = stronger binding
Parent: CDC25A docking peptide (human); PPHRRRLLFACSP
| Variant | normalised enrichment score |
| --- | --- |
| S12Y | 0.439 |
| L8E | -0.151 |
| A10V | -0.211 |
| S12E | 0.274 |
| L8P | -0.451 |
| P1M | 0.0374 |
| R6Y | -0.117 |
| P13H | 0.353 |
| P1C | -0.276 |
| L7W | 0.479 |
| R4G | 0.303 |
| P1L | -0.21 |
| C11Q | 0.35 |
| P1Q | -0.0939 |
| L8C | -0.204 |
| S12P | 0.0845 |
| L7C | 0.0865 |

Set 2 — method: protein-binding microarray; form: double-stranded DNA, one strand shown; sample: in vitro; concentration: 2540 nM top; setting: 60-bp whole probe; added: salmon DNA 0.4 mg/ml; relative to: random background probes; reading: higher = stronger binding; all sequences stand within: GCCTAGCAC … GTCTTGATTCGCTTGACGCTGCTG
Target: Interferon regulatory factor 3, full length, phosphomimetic (IRF3, Homo sapiens, UniProt Q14653, residues 1-427, S386D/S396D/S398D/S402D/T404D/S405D)
UniProt Q14653, sequence (whole entry, unmodified, looked up): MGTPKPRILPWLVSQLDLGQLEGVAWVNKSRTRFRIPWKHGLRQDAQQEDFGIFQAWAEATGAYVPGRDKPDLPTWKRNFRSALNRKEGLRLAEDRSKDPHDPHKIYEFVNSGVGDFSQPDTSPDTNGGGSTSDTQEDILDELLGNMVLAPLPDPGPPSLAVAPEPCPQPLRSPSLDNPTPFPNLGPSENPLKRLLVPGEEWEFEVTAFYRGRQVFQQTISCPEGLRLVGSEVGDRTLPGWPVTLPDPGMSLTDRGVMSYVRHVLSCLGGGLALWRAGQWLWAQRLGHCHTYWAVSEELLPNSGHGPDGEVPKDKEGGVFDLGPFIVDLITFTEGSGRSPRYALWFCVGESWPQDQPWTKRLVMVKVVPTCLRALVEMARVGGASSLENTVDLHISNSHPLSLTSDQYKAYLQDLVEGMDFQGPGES
| Sequence | fitted relative affinity [z-score] |
| --- | --- |
| TCCAACCTGCTGAATCAAAAGTGCTAG | 0.6 |
| GACGAACTGGGGTTGCGAGACGTGCTA | -0.393 |
| TCACTTATCCCTAATCTCACTGTGCTA | 1.1 |
| GACGAACTGAGACTGGGGACGTGCTAG | -0.321 |
| TTAGATATCAGTTTCGATTTGTGCTAG | 6.55 |
| GACGATCTCGGTATCGAGACGTGCTAG | 1.04 |
| GACGCACTGCTACTGCTGACGTGCTAG | -0.502 |
| TTAGGACTGGGGTTTCGCTTAGTGCTA | 0.654 |
| TCAATTTTGGTTTTCTCACTGTGCTAG | 2.18 |
| TTAGGTTCCGGTTTCGGTTGGTGCTAG | 7.2 |
| TTAGGTTTGGGTATCGGTTAGTGCTAG | 1.01 |
| TCACCTATCTCCTCACAGACTGTGCTA | 2.29 |
| GACGGTATCCTTCTCCTCACGTGCTAG | 7.18 |
| TTAGGTTTCGGGTTCCGGTTAGTGCTA | 5.25 |
| TCATTTTTCTAAACCATACTGTGCTAG | 2.25 |
| ATAGGTTTCGGACTGGGTTAGTGCTAG | 4.63 |
| TATGGCTTCAAGTAACTACAGTGCTAG | -0.716 |
| TTAGATATCGGGACTCGATTAGTGCTA | 0.0467 |

Set 3 — target: BATF, bZIP domain (human); method: DHFR protein complementation; sample: yeast; relative to: wild-type JUN-FOS pair; reading: higher = stronger binding
Setting: single substitutions, most at no-binding floor
Parent: JUN, bZIP domain (human); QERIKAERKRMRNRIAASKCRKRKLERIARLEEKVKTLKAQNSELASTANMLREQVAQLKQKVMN; partner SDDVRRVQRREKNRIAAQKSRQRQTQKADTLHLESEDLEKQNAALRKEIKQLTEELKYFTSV
| Variant | binding fitness |
| --- | --- |
| A57E | 0.0463 natural log |
| L59A | 0.0998 natural log |
| A46W | -0.0873 natural log |
| A40W | -0.199 natural log |
| E54R | -0.0776 natural log |
| A57Y | -0.0262 natural log |
| L38P | -1.12 natural log |
| A46R | 0.0493 natural log |
| A29D | -0.0166 natural log |
| E33W | -0.239 natural log |
| L59T | -0.182 natural log |
| A40C | -0.0724 natural log |
| L45K | -1.37 natural log |
| E33G | -0.184 natural log |
| L59W | -0.155 natural log |

Set 4 — method: protein binding microarray; form: double-stranded DNA, one strand shown; sample: in vitro; concentration: not given; relative to: not given; reading: higher = stronger binding
Target: Histone acetyltransferase KAT6A, winged helix 2, GST fusion (KAT6A, Homo sapiens, UniProt Q92794, residues 85-181)
Setting: 8-mer, flanks averaged, mean of 2 arrays, mostly near background
Target sequence (chain): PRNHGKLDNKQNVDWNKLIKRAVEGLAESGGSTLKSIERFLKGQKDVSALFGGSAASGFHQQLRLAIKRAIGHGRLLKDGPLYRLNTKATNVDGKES
| Sequence | E-score |
| --- | --- |
| GTGTAGTA | -0.122 |
| CGGGGCAA | 0.148 |
| AATTATTA | 0.148 |
| ATGTGACA | 0.017 |
| CAAGCTAC | -0.0458 |
| TATTTCGA | 0.097 |
| ACCATACA | -0.122 |
| CAAGTGTC | -0.0523 |
| CGCGGAAA | 0.165 |
| ATAGCTCG | -0.0311 |
| AGCGAAAT | -0.0958 |
| AATTAGGA | 0.0582 |
| AGGCGAGA | 0.117 |
| CAAGAGGA | 0.082 |
| ATGAATCG | -0.0477 |
| ACTAGAAG | -0.0237 |
| AAGACCGA | -0.0576 |
| CCGTAAGC | -0.0533 |
| AGCAGAAG | -0.167 |
| GTGTTCGA | 0.155 |
| CCGCCTTA | 0.132 |
| AAAAACTG | -0.135 |
| CACCTTCA | -0.0957 |
| GTTAATAA | 0.14 |
| ATGACTTA | -0.0774 |

Set 5 — method: DHFR PCA, deep sequencing; sample: yeast; added: (+)-ABA 1.4 µM; relative to: wild-type fitted maximum; reading: higher = stronger binding
Target: ABI1, truncated, D143A, DHFR fusion (Arabidopsis thaliana)
Setting: methotrexate growth selection, single substitutions
Parent: PYL1, truncated, DHFR fusion (Arabidopsis thaliana); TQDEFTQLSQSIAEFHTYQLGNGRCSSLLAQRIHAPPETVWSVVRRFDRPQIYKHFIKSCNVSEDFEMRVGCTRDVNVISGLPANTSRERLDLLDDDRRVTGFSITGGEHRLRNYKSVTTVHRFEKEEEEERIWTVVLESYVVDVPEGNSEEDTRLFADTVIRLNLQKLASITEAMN
| Variant | relative binding score [%] |
| --- | --- |
| R98T | 13.2 |
| D97R | 42.8 |
| P36M | 31.5 |
| V40F | -37.6 |
| I33G | 9.05 |
| L156K | -8.5 |
| D95G | -2.88 |
| R88N | 32.5 |
| D3Y | 27.2 |

Other studies, line by line
| Substance | target | test | test system | conditions | scale | quantity | value |
| --- | --- | --- | --- | --- | --- | --- | --- |
| PhoQ, residues 284 288 289 292 302 303 NLAAMI | PhoP, residues 12 14 15 18 19 VQALL (Escherichia coli, UniProt P23836) | Sort-seq, refers to: YFP reporter | E. coli | PhoQ-PhoP variant library, added: 10 µM Mg2+ | relative to: high Mg2+ state, higher = stronger signaling | fold induction | 15.5 |

For quick reference, copied from above (set 3):
| Variant | binding fitness |
| --- | --- |
| E33G | -0.184 natural log |
| L45K | -1.37 natural log |
| A40W | -0.199 natural log |
| E54R | -0.0776 natural log |
| A46W | -0.0873 natural log |
